Assay results from different studies.
Each line is one published result; not all experiments were run side by side. Numbers after ± are the reported error.
Chain of UniProt Q96CP6 (whole entry, looked up): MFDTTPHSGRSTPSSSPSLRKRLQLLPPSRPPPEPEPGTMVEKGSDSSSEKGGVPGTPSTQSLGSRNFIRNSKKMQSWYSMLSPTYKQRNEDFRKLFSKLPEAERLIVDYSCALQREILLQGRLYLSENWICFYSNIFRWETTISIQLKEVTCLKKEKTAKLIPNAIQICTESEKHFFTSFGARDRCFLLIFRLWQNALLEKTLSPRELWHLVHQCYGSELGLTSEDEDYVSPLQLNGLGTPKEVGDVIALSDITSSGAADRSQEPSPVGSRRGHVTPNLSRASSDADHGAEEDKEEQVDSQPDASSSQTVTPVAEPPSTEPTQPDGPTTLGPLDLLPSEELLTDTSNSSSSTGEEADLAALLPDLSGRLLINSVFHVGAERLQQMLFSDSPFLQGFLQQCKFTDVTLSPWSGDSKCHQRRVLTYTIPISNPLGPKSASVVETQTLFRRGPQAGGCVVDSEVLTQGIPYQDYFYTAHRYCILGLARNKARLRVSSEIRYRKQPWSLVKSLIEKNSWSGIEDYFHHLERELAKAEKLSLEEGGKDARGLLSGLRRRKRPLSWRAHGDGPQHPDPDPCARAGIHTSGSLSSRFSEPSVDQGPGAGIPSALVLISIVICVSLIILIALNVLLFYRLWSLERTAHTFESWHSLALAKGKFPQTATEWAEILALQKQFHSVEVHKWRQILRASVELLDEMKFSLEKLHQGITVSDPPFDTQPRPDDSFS
Chain of UniProt P30989 (whole entry, looked up): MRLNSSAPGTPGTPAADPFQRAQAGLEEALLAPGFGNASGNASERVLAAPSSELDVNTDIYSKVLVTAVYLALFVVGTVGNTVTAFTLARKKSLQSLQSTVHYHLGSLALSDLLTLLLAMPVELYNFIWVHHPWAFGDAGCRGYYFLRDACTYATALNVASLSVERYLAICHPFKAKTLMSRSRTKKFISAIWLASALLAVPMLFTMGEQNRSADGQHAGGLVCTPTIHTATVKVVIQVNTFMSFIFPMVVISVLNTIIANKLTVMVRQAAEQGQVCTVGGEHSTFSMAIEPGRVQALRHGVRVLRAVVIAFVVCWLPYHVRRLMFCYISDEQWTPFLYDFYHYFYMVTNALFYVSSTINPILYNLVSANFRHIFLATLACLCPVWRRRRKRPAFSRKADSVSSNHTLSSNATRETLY

| SMILES | tested on | test | test system | conditions | scale | quantity | result |
| --- | --- | --- | --- | --- | --- | --- | --- |
| COc1cc(Nc2ncc(F)c(Nc3ccc4c(n3)NC(=O)C(C)(C)O4)n2)cc(OC)c1OC | NTSR1 (Homo sapiens, UniProt P30989) |  |  |  |  | IC50 | > 10000 nM |
| Nc1ncc(-c2nc(N3CCOCC3)nc(N3CCOCC3)n2)c(C(F)F)n1 | U-87 MG | cell growth |  | 72 h |  | GI50 | 194 nM |
| N#C[Se]CCCCOc1ccc2c(-c3ccccc3)cc(=O)oc2c1 | WiDr, multidrug-resistant | sulforhodamine B |  |  |  | GI50 | 25000 ± 3000 nM |
| C[C@]12CC[C@H](O)CC1=CC[C@@H]1[C@@H]2CC[C@]2(C)C(n3cnc4ccccc43)=CC[C@@H]12 | CWR22Rv1 | cell growth, MTT |  |  |  | GI50 | 560 ± 170 nM |
| COc1cc(CCC[P+](c2ccccc2)(c2ccccc2)c2ccccc2)c(OC)c2c1OCO2.[I-] | OVCAR-4 | SRB |  |  |  | GI50 | -5.97 log M |
| C[C@H]1CN(c2n[nH]c3nc(N[C@H]4CC[C@H](NS(=O)(=O)CCC(F)(F)F)CC4)ncc23)CCO1 | Protein Aster-A (Homo sapiens, UniProt Q96CP6) | Kinobeads competition, measured: GRAMD1A |  | 20 µM, unit not given | baseline: vehicle | remaining binding | 1.25 |
| Cc1cc(=O)oc2cc(OCCCC[Se]C#N)ccc12 | WiDr, multidrug-resistant | sulforhodamine B |  |  |  | GI50 | 1400 ± 300 nM |
| CC(C)N1CCC(NC2CCN(c3cccc(-c4cc5cc(F)ccc5[nH]4)c3)CC2)CC1 | SW-620 |  |  |  |  | GI50 | 397 nM |
| C[C@]12CC[C@H](n3ccnc3)CC1=CC[C@@H]1[C@@H]2CC[C@]2(C)C(n3cnc4ccccc43)=CC[C@@H]12 | CWR22Rv1 | cell growth, MTT |  |  |  | GI50 | 310 ± 160 nM |
| COc1c(CCC[P+](c2ccccc2)(c2ccccc2)c2ccccc2)cc2c(c1OC)OCO2.[I-] | Malme-3M | SRB |  |  |  | GI50 | -6.22 log M |
| CN1CCN(C2(CNC3CCN(c4cccc(-c5cc6cc(F)ccc6[nH]5)c4)CC3)CCC2)CC1 | NCI/ADR-RES |  |  |  |  | GI50 | 1680 nM |
| CC[C@H](C)[C@H](NC(=O)[C@H](Cc1ccccc1)NC(=O)[C@H](CCC(=O)O)NC(=O)[C@H](CCCNC(=N)N)NC(=O)[C@H](C)NC(=O)[C@H](C)NC(=O)[C@H](CCC(N)=O)NC(=O)[C@H](CCC(=O)O)NC(=O)[C@H](CCC(=O)O)NC(=O)[C@H](CC(C)C)NC(=O)[C@H](Cc1ccc(O)cc1)NC(=O)[C@H](CO)NC(=O)[C@H](CO)NC(=O)[C@@H](NC(=O)[C@H](CC(=O)O)NC(=O)[C@H](CO)NC(=O)[C@@H](NC(=O)[C@H](Cc1ccccc1)NC(=O)[C@@H](NC(=O)CNC(=O)[C@H](CCC(=O)O)NC(=O)[C@H](C)NC(=O)CCc1c[nH]cn1)[C@@H](C)O)[C@@H](C)O)C(C)C)C(=O)N[C@@H](C)C(=O)N[C@@H](Cc1c[nH]c2ccccc12)C(=O)N[C@@H](CC(C)C)C(=O)N[C@H](C(=O)N[C@@H](CCCNC(=N)N)C(=O)NCC(=O)N[C@@H](CCCNC(=N)N)C(=O)N[C@@H](CCCCNC(=O)COCCOCCNC(=O)COCCOCCNC(=O)CC[C@H](NC(=O)CCCCCCCCCCCCCCCCC(=O)O)C(=O)O)C(=O)NCC(=O)NCC(=O)N[C@@H](CO)C(=O)N[C@@H](CCCCNc1c(NCCCCCN(O)C(=O)CCC(=O)NCCCCCN(O)C(=O)CCC(=O)NCCCCCN(O)C(C)=O)c(=O)c1=O)C(=O)O)C(C)C [zirconium-89 labelled] |  | gamma counting | rat, skin of neck | subcutaneous, 3 nmol/kg, 72 h |  | tissue uptake | 0.14 %ID/g |
| CC[C@H](C)[C@@H]1NC(=O)[C@@H]2CCCN2C(=O)[C@H](CC(C)C)NC(=O)[C@H](CC(C)C)NC(=O)CNC(=O)[C@@H](NC(=O)[C@@H](NC(=O)[C@H](CC(=O)O)NC(=O)CNC(=O)[C@@H](NC(=O)[C@H](C)NC(=O)CNC(=O)[C@H](CCCCN)NC(=O)[C@H](CC(C)C)NC(=O)[C@H](CC(C)C)NC(=O)[C@H](CCCCN)NC(=O)CNC(=O)[C@@H](NC(=O)[C@@H](N)CC(C)C)C(C)C)C(C)C)C(C)C)CSSC[C@@H](C(=O)O)NC1=O |  | RNA-seq, measured: Nipal1 | mouse, traumatic brain injury model, frontal cortex and hippocampus | dose not given | baseline: TBI alone | log2 fold change | -3.98 |
